Published values from different studies.
A part holds a random share of what one study measured.

Sample 1 — technique: RNA Bind-n-Seq; molecule type: RNA; medium: in vitro; tested at: 365 nM; reference: no-protein control; reading: higher = stronger binding
Target: RNA binding protein fox-1 homolog 2, RRM domain, GST-SBP tag (RBFOX2, Homo sapiens, UniProt O43251-10, residues 100-194)
Notes: natural RNA segment, single round, ends assumed
Target sequence (chain): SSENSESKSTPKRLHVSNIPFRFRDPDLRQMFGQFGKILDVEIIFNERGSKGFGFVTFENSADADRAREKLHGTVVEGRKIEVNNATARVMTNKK
Oligonucleotide | RBNS enrichment (R)
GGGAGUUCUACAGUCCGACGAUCGUUGGCUGGCCUCUUGGACCAGAAGCCAUCUCCAUAUCCUCAUGAGCGAUUCCAUAUCUCCACUCAGACCCUGUGGACUACAGUGUUCCGCUGUGGUGGCUGCCAAGAUGUGGAAUUCUCGGGUGCCAA | 0.359
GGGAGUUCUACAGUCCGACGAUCUGUCCCCCCAUUAGGAUUCUAUUACAUAUGCAAUUGUAGGUUCAACCUGUCCCUUUCCCUGCCAGCAAACCCCACCACCCUAAGAGAAAUUUUAGCUUAUAUAUGACGGUUGGAAUUCUCGGGUGCCAA | 1.27
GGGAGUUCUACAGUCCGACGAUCGGAGACAAGAUGUAGACCCAGACAGAAGAAAUCUGCUUCCCUACCAUGGCUAUUCCAGCACCCCAACCUGUAAUUGCCAAGUCCUCUAAGGUACUAAUUUGUAGCUGCUCUGGAAUUCUCGGGUGCCAA | 0.672
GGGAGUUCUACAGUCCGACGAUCCAUUUAGAGCUUUGUGCUUUUCUCUCAUUCCAUCACUUUGUAAUGAUGAUACUUAACAUGAGCAGGGUGAAUGACAGGUACUGACGAAGUCCAACACAAAGGUAUAAUACUGGAAUUCUCGGGUGCCAA | 0.565
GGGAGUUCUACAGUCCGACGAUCAGACUUGUUACAUAGAGGGAAAAUGGACUGGGAUAGAGGACAGACUGAUAGUUUCUUUCUUUCAUAUCACAUGUAUAGAGAAAUAAUUAUAUCAGAAACUCACAAACCUAUGGAAUUCUCGGGUGCCAA | 0.587
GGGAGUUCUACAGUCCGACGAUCAUUGUACUCUUCUAGGCUGGACCGAAUUCAUAUGCAGAUUGAAGUGAGACCUGCUCUUUACAGAUGGUAUUUUGAUAGAUACUGGAGUUUGUCUGUAUUAUAUCUGUGCCUGGAAUUCUCGGGUGCCAA | 0.49
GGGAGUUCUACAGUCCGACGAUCUACCUUCCCCAGCGUCCCAGUCUCUGGCAGUUCUGGAAUGGAAGGGUUCUGGCUGCCCCAACCUGCUGAAGGGCAGAGGUGGAGGGUGGGGGGCGCUGAGUAGGGACUCAUGGAAUUCUCGGGUGCCAA | 0.577
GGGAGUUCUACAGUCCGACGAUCUAGUUAAGAGUGGGGUCACCCCUUUAACUCCAAGCACUACAUUUUGGCGGCUGCCGGCCUCUGGGGGAGGUGGCAGUUAUGCUGUUACUAGUGAUUUUAGGGCUUUGUUAUGGAAUUCUCGGGUGCCAA | 0.552

Sample 2 — technique: DNA-protein interaction ELISA; molecule type: double-stranded DNA, one strand shown; medium: in vitro, bacterial lysate; tested at: not given; notes: whole dsDNA probe, crude lysate protein; reference: highest signal in screen; reading: higher = stronger binding
Target: Probable WRKY transcription factor 50, DNA-binding domain (WRKY50, Arabidopsis thaliana, UniProt Q8VWQ5, residues 99-173)
Construct (chain): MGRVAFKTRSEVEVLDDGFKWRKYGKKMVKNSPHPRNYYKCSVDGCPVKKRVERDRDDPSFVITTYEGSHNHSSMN
Oligonucleotide | relative absorbance
AAAAAAGATCTAGGCCTTGGGACTCAAAAA | 23.5 % of maximum
AAAAAAAATTAGTCTCTTCGTCTCCCAAAA | 25 % of maximum
AAAAAAACGCTATATATTGGTGCTAGAAAA | 24.7 % of maximum
AAAAAATCAGTCTGAGACTTACAACTAAAA | 22.1 % of maximum
AAAAAAATCCATATTATTGCTACCCGAAAA | 21.6 % of maximum
AAAAAAGGAAGTACTGACGATCTGGAAAAA | 34.9 % of maximum
AAAAAACTGACCGTCAGCGCCCACGCAAAA | 40.7 % of maximum
AAAAAATATGGCACTCGCCGCACATCAAAA | 24.1 % of maximum
AAAAAATTACGTTTGTATTTGTAAAA | 17.6 % of maximum
AAAAAACTGGCGACTGCCAGTGGTAGAAAA | 18.9 % of maximum
AAAAAATATTCCGCTTTTGGCTGAATAAAA | 31.7 % of maximum
AAAAAAGTGTTTGTGCTTCTCTCTGTAAAA | 21.8 % of maximum
AAAAAAGTCTCACCTTTAGTCTTAATAAAA | 35 % of maximum
AAAAAATCCATGTTTAAGCTGGTCTCAAAA | 33.9 % of maximum
AAAAAAGCGCGCCCGCACTGTTAATAAAAA | 12.1 % of maximum
AAAAAACGTGCGCGTGCATGTCATCGAAAA | 12 % of maximum
AAAAAACTCGTACATCTATCGCTACGAAAA | 11.8 % of maximum
AAAAAAGTGTGTGGCTCAGGATTCCCAAAA | 28.5 % of maximum
AAAAAATTACTTCTCCCTTCCTTTGCAAAA | 40.9 % of maximum
AAAAAAAACTGTCGCCCCCGGCTGGCAAAA | 17.7 % of maximum
AAAAAATCCTGTTTGCGTTTGATTTTAAAA | 30.9 % of maximum
AAAAAATTCGGGACTAGTAGTGGTGAAAAA | 16.6 % of maximum
AAAAAAACACCTGTATAGCATGGACGAAAA | 30 % of maximum
AAAAAAAGTGGCCGCTAGTCAACTCAAAAA | 40 % of maximum
AAAAAAACGGGTTGTGAATGTGGAAGAAAA | 42.2 % of maximum

Sample 3 — technique: RNA Bind-n-Seq; molecule type: RNA; medium: in vitro; tested at: 100 nM; reference: input RNA pool; reading: higher = stronger binding
Target: RING finger protein unkempt homolog, zinc fingers 1-6, SBP tag (UNK, Homo sapiens, UniProt Q9C0B0, residues 30-357)
Sequence of UniProt Q9C0B0 (30-357, looked up): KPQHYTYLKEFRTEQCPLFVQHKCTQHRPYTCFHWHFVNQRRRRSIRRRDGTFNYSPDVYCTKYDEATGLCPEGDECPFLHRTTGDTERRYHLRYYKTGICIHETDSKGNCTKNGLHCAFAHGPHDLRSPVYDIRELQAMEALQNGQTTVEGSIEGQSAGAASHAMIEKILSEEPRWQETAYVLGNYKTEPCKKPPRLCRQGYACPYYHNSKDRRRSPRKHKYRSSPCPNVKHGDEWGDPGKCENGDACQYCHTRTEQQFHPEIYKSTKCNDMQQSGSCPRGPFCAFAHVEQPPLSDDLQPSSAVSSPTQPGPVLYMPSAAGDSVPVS
Notes: RNA with constant flanks, vertebrate orthologous sites, ends assumed
Oligonucleotide | bound/input enrichment
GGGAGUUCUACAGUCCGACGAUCCUGAAGCUUUGUGUUUGGCUGCACCUGCAUAAGCUGCUACAAAUAGAAUAAAGAAUUUCAUAGCCUGUAUCUAUCAUUUAGAUGCAUGGAAAAAAAUGGGCUUUGCACACAAUGGGUUUGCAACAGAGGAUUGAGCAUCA | 1.92 ratio
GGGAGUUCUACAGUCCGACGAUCAUAGUGGGUUCCUGUCUACUUCUUUCAAGUGUGUGUGGAGGUGGGCGGGGGGAGCCCGCAGAGAUUUCUUAUACAUCUGAUUUGACUGUUCUGGUUUUGCUUUCUAUUAUUUUUAUAUAUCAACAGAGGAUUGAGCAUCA | 0.805 ratio
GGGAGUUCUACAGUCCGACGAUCGAAAAUUAUAGCAAAAGAGCCAAGCAGUAGCAUUGUUUAUUUUGUAAAUGUAAAAAUAAUUAGAUGCAAACCUUGUUUCCUUAUUCAAUUUUAAAAAUAAAAAAUACCUCAGUGCUAUGUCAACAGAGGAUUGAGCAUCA | 0.533 ratio
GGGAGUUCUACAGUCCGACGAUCUUGUGUAGUUUUGUAUUUUCAUGCAAAAAUCUUACUGUACUUGAAUGUCUUUAUUUUAUUAAAUGUGUUUAAAUUUUUGGUUAUUAUAUCCUAGAAUCGCUGUAAGUAUACAUGUCGCAGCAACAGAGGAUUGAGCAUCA | 0.536 ratio
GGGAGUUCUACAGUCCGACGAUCAGAAGACUUUGUGUGCCAGAUUACCCCAAAAACAUAAAGCUACUUUUUUACUUGCAUAUUUUUCAAAGUACCUGGAAAAAUGUUUUUUCUCCUUUCUAAUGGUCAAAAGAAGGUACAUUUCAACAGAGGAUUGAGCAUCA | 0.53 ratio
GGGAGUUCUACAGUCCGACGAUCCAUUAACACACGAAAUGUCUCCAGGGGGGUAUUAGAUUUGAUUUCUUACAUAUAAAACAAACCAACCAACCAUUUUUAAAGUAGAAGAGGGUUUUAGAUAGUAAAUGAAAUAUUCUUUUUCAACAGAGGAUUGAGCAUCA | 1.56 ratio
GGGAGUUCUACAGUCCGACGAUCGUGUCUUGGUUUGGGGUAGAGGGGAGGGAGGGGCAGGACUGUGGAAUCUCUAGUGGGUAUGGGUAUAUAUAGGGUGCACAGUUCUAAGUGGGCCUUUAUGUUAAAAACCUCUGGGGGUGUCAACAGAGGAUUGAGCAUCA | 0.511 ratio
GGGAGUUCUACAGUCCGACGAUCCAAAUUCAUCUCUUAUAUGUCCAAAAAUGACUGAAUUUUUUAAAAGUUGAUAGUUUUAAUUAGCUCUGCCCUCUUGAAGAAGUAUUUUAAUUCACCGCAAACAGAUAUCUGUCUGAUUUACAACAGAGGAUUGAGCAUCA | 0.756 ratio

Sample 4 — technique: protein-binding microarray; molecule type: double-stranded DNA, one strand shown; medium: in vitro; tested at: 250 nM; notes: 60-bp whole probe; together with: salmon DNA 0.4 mg/ml; reference: random background probes; reading: higher = stronger binding; shared flanks, not repeated: GCCTAGCAC … GTCTTGATTCGCTTGACGCTGCTG
Target: Interferon regulatory factor 5, full length, phosphomimetic (IRF5, Homo sapiens, UniProt Q13568-2, residues 1-514, K96S/S451D/S453D/S456D/S462D)
Oligonucleotide | log fluorescence
ATAAAAATCTTTGTTGGAGGGGTGCTA | 0.618 z-score
GACGGTTTCGGTTTCCGGACGTGCTAG | 10.1 z-score
GAACATACTGATTTCCACTTGTGCTAG | 0.617 z-score
TTAGGTTTCCTTATCCTTGAGTGCTAG | 0.828 z-score
TCATATTTGTCCCTATTACTGTGCTAG | 0.763 z-score
TTGGGTTTCGACTTTCGGTTAGTGCTA | 10.2 z-score
GAGGGTTTCGGTATCGGGACGTGCTAG | 9.05 z-score
TTAAGTTTCGGTTTCGGTTAGTGCTAG | 12.1 z-score
TTAGATTCCAGTCTCGATTAGTGCTAG | 1.15 z-score
TTAGATATCGGGACTCGATTAGTGCTA | 1.12 z-score
TTAGGTATCCTACTGCTTCAGTGCTAG | -0.144 z-score
GACGAACTGAGTTTCGTGACGTGCTAG | 2.09 z-score
GACGGTTTCGACTTTCGTGACGTGCTA | 6.59 z-score
TTAGTTATCGGGTATCGATTAGTGCTA | 6.59 z-score
ACTTGTATTTGTCCCTATTTGTGCTAG | 0.484 z-score
GACGGTTTCGGTATCGGTACGTGCTAG | 10.5 z-score
TTAGAACTGGGGTATCGTTTAGTGCTA | 0.818 z-score
GACGAACTGGGTACTGGAGACGTGCTA | -0.662 z-score
CATATATTCACTATAGTGTGGTGCTAG | 0.626 z-score

Some of these lines once more (sample 2):
Oligonucleotide | relative absorbance
AAAAAATATTCCGCTTTTGGCTGAATAAAA | 31.7 % of maximum
AAAAAAGTGTTTGTGCTTCTCTCTGTAAAA | 21.8 % of maximum
AAAAAAGTCTCACCTTTAGTCTTAATAAAA | 35 % of maximum
AAAAAATCCATGTTTAAGCTGGTCTCAAAA | 33.9 % of maximum
AAAAAAGCGCGCCCGCACTGTTAATAAAAA | 12.1 % of maximum
AAAAAACGTGCGCGTGCATGTCATCGAAAA | 12 % of maximum
AAAAAACTCGTACATCTATCGCTACGAAAA | 11.8 % of maximum
AAAAAAGTGTGTGGCTCAGGATTCCCAAAA | 28.5 % of maximum
AAAAAATTACTTCTCCCTTCCTTTGCAAAA | 40.9 % of maximum
AAAAAAAACTGTCGCCCCCGGCTGGCAAAA | 17.7 % of maximum
